Measured values collected from several papers.
Lines come from different studies, so protocols differ. ± gives the spread as reported.

SMILES | assay | test system | setting | half-life
Cn1nnc2c(C(N)=O)ncn2c1=O | microdialysis | male athymic rat, intracranial U87 tumour ECF | oral, 50 mg/kg, cediranib 12 h before, added: cediranib 6 mg/kg oral | 1.1 h
S=c1sc2ccccc2n1CCCCN1CCN(C2CCCCC2)CC1 |  | male Sprague-Dawley rat, plasma | intravenous, 5 mg/kg | 1 h
Cc1nc(Nc2ncc(C(=O)Nc3c(C)cccc3Cl)s2)cc(N2CCN(CCO)CC2)n1 |  | Sprague-Dawley rat, female, plasma | intraperitoneal, 5 mg/kg, added: rosiglitazone co-dosed | 4.38 ± 1.22 h
CCOc1cc([C@@H](CS(C)(=O)=O)N2C(=O)c3cccc(NC(C)=O)c3C2=O)ccc1O[C@@H]1O[C@H](C(=O)O)[C@@H](O)[C@H](O)[C@H]1O |  | moderate renal impairment patients, plasma | oral, 30 mg of apremilast | 23.7 h
NC(=O)c1cnc2[nH]ccc2c1N[C@@H]1[C@@H]2CC3C[C@H]1C[C@@](O)(C3)C2 |  | Japanese, moderate hepatic impairment, plasma | oral, 150 mg single dose, mean | 11.2 h
CC(C)=CCC[C@](C)(O[C@@H]1O[C@H](CO)[C@@H](O)[C@H](O)[C@H]1O)[C@H]1CC[C@]2(C)[C@@H]1[C@H](O)C[C@@H]1[C@@]3(C)CC[C@H](O)C(C)(C)[C@@H]3[C@@H](O[C@@H]3O[C@H](CO)[C@@H](O)[C@H](O)[C@H]3O[C@@H]3O[C@@H](C)[C@H](O)[C@@H](O)[C@H]3O)C[C@]12C |  | Sprague Dawley rats, male, plasma | oral, 45 mg/kg, aqueous solution, added: co-dosed pure ginsenoside mixture | 3.2 ± 2.9 h
CCc1oc2ccccc2c1C(=O)c1cc(Br)c(O)c(Br)c1 |  | Sprague-Dawley rats, male, whole blood | intravenous, 0.5 mg/kg | 1 h
O=C(/C=C/c1ccc(O)c(O)c1)O[C@H](Cc1ccc(O)c(O)c1)C(=O)O | UPLC-MS/MS | Wistar rat, microcirculation dysfunction model, plasma | oral, 100 mg/kg Salvia miltiorrhiza stem-leaf extract FT | 13.2 ± 21 h
COc1cccc(-c2n[nH]c(SCc3ccccn3)n2)c1OC |  | Sprague-Dawley rat, both sexes, plasma | oral, 100 mg/kg | 2.56 to 3.05 h
CCN1CCN(c2ccc(Nc3cc(N(C)C(=O)Nc4c(Cl)c(OC)cc(OC)c4Cl)ncn3)cc2)CC1 | LC-MS/MS | juvenile male Crl:WI(Han) rats, plasma | oral gavage, 0.3 mg/kg/day, postnatal day 17 | 4.59 h
O=C(CCCN1CCCN(c2ccc(Cl)cc2)CC1)c1ccc(F)cc1 |  | male Sprague-Dawley rats, plasma | intravenous, 1.7 mg/kg, added: HAL 0.7 mg/kg plus BCT 0.1 mg/kg | 0.467 ± 0.143 h
CCCC[C@H](NC(C)=O)C(=O)N[C@H]1CCC(=O)NC[C@@H](C(=O)N[C@@H](Cc2c[nH]c3ccccc23)C(N)=O)NC(=O)[C@H](CCCNC(=N)N)NC(=O)[C@@H](Cc2ccccc2)NC(=O)[C@H](Cc2c[nH]cn2)NC1=O |  | CD Sprague Dawley rat, female, plasma | subcutaneous, 1.0 mg/kg daily, day 1 | 0.749 h
CCC[C@@]1(CCc2ccccc2)CC(O)=C([C@H](CC)c2cccc(NS(=O)(=O)c3ccc(C(F)(F)F)cn3)c2)C(=O)O1 |  | Sprague Dawley rat, male, plasma | oral, 5 mg/kg, long-chain triglyceride formulation | 4.11 ± 0.4 h
C[C@@H]1O[C@@H](OC[C@H]2O[C@@H](Oc3c(-c4ccc(O)c(O)c4)oc4cc(O)cc(O)c4c3=O)[C@H](O)[C@@H](O)[C@@H]2O)[C@H](O)[C@H](O)[C@H]1O | UPLC-MS/MS | Wistar rat, microcirculation dysfunction model, plasma | oral, 100 mg/kg Salvia miltiorrhiza stem-leaf extract FT | 16.9 ± 24.8 h
CC(C)=CCC[C@](C)(O[C@@H]1O[C@H](CO)[C@@H](O)[C@H](O)[C@H]1O)[C@H]1CC[C@]2(C)[C@@H]1[C@H](O)C[C@@H]1[C@@]3(C)CC[C@H](O[C@@H]4O[C@H](CO)[C@@H](O)[C@H](O)[C@H]4O[C@@H]4O[C@H](CO)[C@@H](O)[C@H](O)[C@H]4O)C(C)(C)[C@@H]3CC[C@]12C |  | Sprague Dawley rat, male, plasma | oral, 42 mg/kg, white ginseng extract | 17.7 ± 4.9 h
CC(C)=CCC[C@](C)(O[C@@H]1O[C@H](CO[C@@H]2O[C@H](CO)[C@@H](O)[C@H](O)[C@H]2O)[C@@H](O)[C@H](O)[C@H]1O)[C@H]1CC[C@]2(C)[C@@H]1[C@H](O)C[C@@H]1[C@@]3(C)CC[C@H](O[C@@H]4O[C@H](CO)[C@@H](O)[C@H](O)[C@H]4O[C@@H]4O[C@H](CO)[C@@H](O)[C@H](O)[C@H]4O)C(C)(C)[C@@H]3CC[C@]12C |  | Sprague Dawley rats, plasma | oral, 100 mg/kg, control group sterile water | 15.5 ± 1.58 h
CCN(CC)Cc1cc(Nc2ccnc3cc(Cl)ccc23)ccc1O |  | rat, Wistar, male, plasma | oral, 60 mg/kg, added: myricetin 5 mg/kg iv | 2.49 ± 0.85 h
O=C(O)/C=C/c1ccc(O)c(O)c1 | UPLC-MS/MS | Wistar rat, microcirculation dysfunction model, plasma | oral, 100 mg/kg Salvia miltiorrhiza stem-leaf extract FS | 7.43 ± 6.32 h
CCc1oc2ccc(O)cc2c1C(=O)c1cc(Br)c(O)c(Br)c1 |  | Sprague-Dawley rats, male, whole blood | intravenous, 0.5 mg/kg | 1.5 ± 0.5 h
O=C(/C=C/c1ccc(O)c(O)c1/C=C/c1ccc(O)c(O)c1)O[C@H](Cc1ccc(O)c(O)c1)C(=O)O | UPLC-MS/MS | Wistar rat, microcirculation dysfunction model, plasma | oral, 100 mg/kg Salvia miltiorrhiza stem-leaf extract FS | 18.7 ± 22.2 h
CC(C)=CCC[C@](C)(O[C@@H]1O[C@H](CO)[C@@H](O)[C@H](O)[C@H]1O)[C@H]1CC[C@]2(C)[C@@H]1[C@H](O)C[C@@H]1[C@@]3(C)CC[C@H](O)C(C)(C)[C@@H]3[C@@H](O[C@@H]3O[C@H](CO)[C@@H](O)[C@H](O)[C@H]3O)C[C@]12C |  | Sprague Dawley rats, male, plasma | oral, 25 mg/kg, aqueous solution, added: co-dosed pure ginsenoside mixture | 7.5 ± 4.2 h
CC(C)=CCC[C@](C)(O[C@@H]1O[C@H](CO)[C@@H](O)[C@H](O)[C@H]1O)[C@H]1CC[C@]2(C)[C@@H]1[C@H](O)C[C@@H]1[C@@]3(C)CC[C@H](O[C@@H]4O[C@H](CO)[C@@H](O)[C@H](O)[C@H]4O[C@@H]4O[C@H](CO)[C@@H](O)[C@H](O)[C@H]4O)C(C)(C)[C@@H]3CC[C@]12C |  | Sprague-Dawley rat, plasma | oral, 100 mg/kg of parent ginsenoside, control group, no prebiotic | 11.9 ± 7.54 h
Cc1nc2cccc(OCC(C)(C)C(=O)NC(C)C)c2c(N)c1C(=O)O |  | female Sprague-Dawley rat, plasma | oral gavage, 100 mg/kg, day 7 | 0.89 h
CCc1cc2c(cc1N1CCC(N3CCOCC3)CC1)C(C)(C)c1[nH]c3cc(C#N)ccc3c1C2=O |  | moderate hepatic impairment patients, plasma, total | oral, 300 mg single dose, fed | 26.9 h
CC(C)=CCC[C@](C)(O[C@@H]1O[C@H](CO[C@@H]2O[C@H](CO)[C@@H](O)[C@H](O)[C@H]2O)[C@@H](O)[C@H](O)[C@H]1O)[C@H]1CC[C@]2(C)[C@@H]1[C@H](O)C[C@@H]1[C@@]3(C)CC[C@H](O[C@@H]4O[C@H](CO)[C@@H](O)[C@H](O)[C@H]4O[C@@H]4O[C@H](CO)[C@@H](O)[C@H](O)[C@H]4O)C(C)(C)[C@@H]3CC[C@]12C |  | Sprague Dawley rat, male, plasma | oral, 86 mg/kg, white ginseng extract | 18.5 ± 3.8 h
O=C(/C=C/c1ccc(O)c2c1[C@H](C(=O)O)[C@@H](c1ccc(O)c(O)c1)O2)O[C@H](Cc1ccc(O)c(O)c1)C(=O)O | UPLC-MS/MS | Wistar rat, microcirculation dysfunction model, plasma | oral, 100 mg/kg Salvia miltiorrhiza stem-leaf extract FT | 4.26 ± 7.35 h
CCc1oc2cc(OC)ccc2c1C(=O)c1cc(Br)c(O)c(Br)c1 |  | Sprague-Dawley rats, male, whole blood | intravenous, 0.5 mg/kg | 1.4 ± 0.6 h

Some of these lines once more:
SMILES | assay | test system | setting | half-life
Cc1nc2cccc(OCC(C)(C)C(=O)NC(C)C)c2c(N)c1C(=O)O |  | female Sprague-Dawley rat, plasma | oral gavage, 100 mg/kg, day 7 | 0.89 h
O=C(CCCN1CCCN(c2ccc(Cl)cc2)CC1)c1ccc(F)cc1 |  | male Sprague-Dawley rats, plasma | intravenous, 1.7 mg/kg, added: HAL 0.7 mg/kg plus BCT 0.1 mg/kg | 0.467 ± 0.143 h
